Assay results of several laboratories.
Protocols differ between the studies behind these lines. Values joined by “and” are separate records of one study, mostly repeats; a detail may differ. ± marks the error that the study gave.
UniProt Q13188, sequence (whole entry, looked up): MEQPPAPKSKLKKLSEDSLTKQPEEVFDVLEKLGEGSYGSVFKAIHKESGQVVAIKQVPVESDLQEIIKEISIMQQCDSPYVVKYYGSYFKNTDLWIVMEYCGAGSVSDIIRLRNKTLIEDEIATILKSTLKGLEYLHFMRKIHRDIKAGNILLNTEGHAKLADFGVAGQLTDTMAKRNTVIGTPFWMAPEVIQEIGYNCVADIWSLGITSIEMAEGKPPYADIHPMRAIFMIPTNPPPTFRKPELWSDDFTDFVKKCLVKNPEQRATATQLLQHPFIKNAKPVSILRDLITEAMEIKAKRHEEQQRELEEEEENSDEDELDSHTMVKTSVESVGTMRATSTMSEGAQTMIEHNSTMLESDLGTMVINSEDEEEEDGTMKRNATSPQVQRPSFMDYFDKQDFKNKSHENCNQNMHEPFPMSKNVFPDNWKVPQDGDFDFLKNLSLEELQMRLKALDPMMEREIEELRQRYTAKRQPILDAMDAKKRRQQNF
UniProt Q02779, sequence (whole entry, looked up): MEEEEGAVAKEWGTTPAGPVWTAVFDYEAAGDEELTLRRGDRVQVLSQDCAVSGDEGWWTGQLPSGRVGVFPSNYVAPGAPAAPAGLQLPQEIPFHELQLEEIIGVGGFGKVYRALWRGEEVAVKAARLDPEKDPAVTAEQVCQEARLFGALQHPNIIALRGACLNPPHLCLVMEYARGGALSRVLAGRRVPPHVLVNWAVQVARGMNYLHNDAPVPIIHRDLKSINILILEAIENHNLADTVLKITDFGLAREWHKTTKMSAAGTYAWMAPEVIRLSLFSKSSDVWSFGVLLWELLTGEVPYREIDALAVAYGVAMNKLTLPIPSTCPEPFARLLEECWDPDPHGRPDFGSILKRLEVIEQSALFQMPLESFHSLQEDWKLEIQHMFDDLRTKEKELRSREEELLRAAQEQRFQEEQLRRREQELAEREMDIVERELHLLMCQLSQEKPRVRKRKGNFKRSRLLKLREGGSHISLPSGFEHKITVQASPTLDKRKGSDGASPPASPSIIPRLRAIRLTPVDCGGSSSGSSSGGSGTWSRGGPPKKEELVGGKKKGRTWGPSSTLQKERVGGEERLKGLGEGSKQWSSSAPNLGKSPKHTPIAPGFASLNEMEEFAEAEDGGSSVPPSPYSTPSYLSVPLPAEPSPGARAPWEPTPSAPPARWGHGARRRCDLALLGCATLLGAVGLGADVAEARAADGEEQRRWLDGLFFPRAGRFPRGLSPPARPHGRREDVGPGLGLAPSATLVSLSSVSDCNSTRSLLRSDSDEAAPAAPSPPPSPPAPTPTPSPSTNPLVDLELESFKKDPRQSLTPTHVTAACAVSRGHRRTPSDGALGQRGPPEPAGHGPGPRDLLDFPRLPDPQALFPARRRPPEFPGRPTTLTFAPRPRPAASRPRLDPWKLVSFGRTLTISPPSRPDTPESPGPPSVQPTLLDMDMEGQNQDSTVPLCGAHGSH

Structure (SMILES) | tested on | test | system | setting | how to read | quantity | result
CSCC[C@H](NC(=O)[C@@H](NC(=O)[C@H](CC(C)C)NC(=O)[C@@H](NC(=O)[C@H](Cc1c[nH]cn1)NC(=O)CCCCCNC(=O)[C@H](CCCNC(=N)N)NC(=O)[C@H](CCCNC(=N)N)NC(=O)[C@H](CCCNC(=N)N)NC(=O)[C@H](CCC(N)=O)NC(=O)[C@H](CCCNC(=N)N)NC(=O)[C@H](CCCNC(=N)N)NC(=O)[C@H](CCCCN)NC(=O)[C@H](CCCCN)NC(=O)[C@H](CCCNC(=N)N)NC(=O)CNC(=O)[C@@H](N)Cc1ccc(O)cc1)C(C)C)C(C)C)C(=O)N[C@@H](CS)C(=O)N[C@@H](C)C(=O)N[C@H](C(N)=O)[C@@H](C)O | – | – | C57BL/6J mouse, blood | Alzet pump, 3 mg/kg, 8 weeks | – | serum sodium | 149 mmol/L
CCCCCCCCCCCCCCCC(=O)N[C@@H](CCC(=O)NCCOCCOCCC(=O)NCCOCCOCCC(=O)NCCCC[C@H](NC(=O)[C@H](CC(=O)O)NC(=O)[C@H](CC(C)C)NC(=O)[C@H](Cc1ccc(O)cc1)NC(=O)[C@H](CCCCN)NC(=O)[C@H](CO)NC(=O)[C@H](Cc1ccc(O)cc1)NC(=O)[C@H](CC(=O)O)NC(=O)[C@H](CO)NC(=O)[C@@H](NC(=O)[C@H](Cc1ccccc1)NC(=O)[C@@H](NC(=O)CNC(=O)[C@H](CCC(N)=O)NC(=O)[C@@H](CO)NC(=O)[C@@H](N)Cc1c[nH]cn1)[C@@H](C)O)[C@@H](C)O)C(=O)N[C@@H](CCCNC(=N)N)C(=O)N[C@@H](CCCNC(=N)N)C(=O)N[C@@H](C)C(=O)N[C@@H](CCC(N)=O)C(=O)N[C@@H](CC(=O)O)C(=O)N[C@@H](Cc1ccccc1)C(=O)N[C@H](C(=O)N[C@@H](CCC(N)=O)C(=O)N[C@@H](Cc1c[nH]c2ccccc12)C(=O)N[C@@H](CC(C)C)C(=O)N[C@@H](CC(C)C)C(=O)N[C@@H](CC(N)=O)C(=O)N[C@H](C(=O)NCC(=O)NCC(=O)N1CCC[C@H]1C(=O)N[C@@H](CO)C(=O)N[C@@H](CO)C(=O)NCC(=O)N[C@@H](C)C(=O)N1CCC[C@H]1C(=O)N1CCC[C@H]1C(=O)N1CCC[C@H]1C(=O)N[C@@H](CO)C(N)=O)[C@@H](C)O)C(C)C)C(=O)O | – | – | rhesus monkey, female | subcutaneous, 20 µg/kg once daily, 28 days | – | creatinine | 47.4 ± 8.6 µmol/L
COc1ccccc1-c1n[nH]c2nc(NC3CCN(C(=O)Cc4ccc(F)cc4F)CC3)ncc12 | – | bead binding, competition bead pull-down, refers to: LINJ.21.0920 | Leishmania donovani extract | 10 µM | baseline: vehicle | relative abundance | 0.87
O=C(O)c1ccc(-c2nc(-c3ccccc3Cl)c3sccn23)cc1 | – | – | mouse, plasma | oral, dose not given, day 3, no 5-FU | – | plasma concentration | 15.3 ng/mL and 11.2 ng/mL
O=C1NC2(CC2)COc2ncc(F)cc2[C@H]2COCCN2c2ccn3ncc1c3n2 | – | – | Sprague-Dawley rat, female, blood | oral, 10 mg/kg/day, 4 weeks, end of treatment, subacute toxicity | – | mean corpuscular haemoglobin | 20.2 ± 0.6 pg
N=C(N)NCCC[C@@H](NC(=O)[C@H](N)Cc1c[nH]c2ccccc12)C(=O)N[C@H](CCCCN)C(=O)N[C@H](Cc1c[nH]c2ccccc12)C(=O)N[C@H](CCCNC(=N)N)C(=O)N[C@H](CCCCN)C(=O)N[C@H](Cc1c[nH]c2ccccc12)C(=O)N[C@H](CCCNC(=N)N)C(=O)N[C@H](CCCCN)C(=O)N[C@H](Cc1c[nH]c2ccccc12)C(=O)N[C@H](CCCNC(=N)N)C(=O)N[C@H](CCCCN)C(N)=O | – | – | mouse, urine | 30 mg/kg | – | Kim-1 level | 43.4 ng/mL
CSCC[C@H](N)C(=O)N[C@@H](C)C(=O)N[C@@H](CCCNC(=N)N)C(=O)N[C@@H](CCCNC(=N)N)C(=O)N[C@@H](CC(=O)O)C(=O)N[C@@H](CCCCN)C(=O)N[C@H](C(=O)N[C@@H](CC(=O)O)C(=O)N[C@@H](Cc1ccccc1)C(=O)N[C@@H](C)C(=O)N[C@@H](CCCNC(=N)N)C(=O)N[C@@H](CCCNC(=N)N)C(=O)N[C@@H](CCCNC(=N)N)C(=O)N[C@@H](CCCNC(=N)N)C(=O)NCCCCCC(=O)NCCCCC(NC(=O)CCCCCNC(=O)[C@H](CCCNC(=N)N)NC(=O)[C@H](CCCNC(=N)N)NC(=O)[C@H](CCCNC(=N)N)NC(=O)[C@H](CCCNC(=N)N)NC(=O)[C@H](C)NC(=O)[C@H](Cc1ccccc1)NC(=O)[C@H](CC(=O)O)NC(=O)[C@@H](NC(=O)[C@H](CCCCN)NC(=O)[C@H](CC(=O)O)NC(=O)[C@H](CCCNC(=N)N)NC(=O)[C@H](CCCNC(=N)N)NC(=O)[C@H](C)NC(=O)[C@@H](N)CCSC)[C@@H](C)O)C(=O)NCCCCC(NC(=O)C(CCCCNC(=O)CCCCCNC(=O)[C@H](CCCNC(=N)N)NC(=O)[C@H](CCCNC(=N)N)NC(=O)[C@H](CCCNC(=N)N)NC(=O)[C@H](CCCNC(=N)N)NC(=O)[C@H](C)NC(=O)[C@H](Cc1ccccc1)NC(=O)[C@H](CC(=O)O)NC(=O)[C@@H](NC(=O)[C@H](CCCCN)NC(=O)[C@H](CC(=O)O)NC(=O)[C@H](CCCNC(=N)N)NC(=O)[C@H](CCCNC(=N)N)NC(=O)[C@H](C)NC(=O)[C@@H](N)CCSC)[C@@H](C)O)NC(=O)CCCCCNC(=O)[C@H](CCCNC(=N)N)NC(=O)[C@H](CCCNC(=N)N)NC(=O)[C@H](CCCNC(=N)N)NC(=O)[C@H](CCCNC(=N)N)NC(=O)[C@H](C)NC(=O)[C@H](Cc1ccccc1)NC(=O)[C@H](CC(=O)O)NC(=O)[C@@H](NC(=O)[C@H](CCCCN)NC(=O)[C@H](CC(=O)O)NC(=O)[C@H](CCCNC(=N)N)NC(=O)[C@H](CCCNC(=N)N)NC(=O)[C@H](C)NC(=O)[C@@H](N)CCSC)[C@@H](C)O)C(N)=O)[C@@H](C)O (stereo partly drawn) | – | – | C57BL/6 mouse female, ovary | dose not given, 3 h | baseline: total | tissue distribution | 0.17% and 1.77% and 0.86%
[2H]C([2H])([2H])C1(C([2H])([2H])[2H])NC(=O)N(c2ccc(F)c(C(C)(F)F)c2)C1=O | – | – | Sprague-Dawley rat, male and female | oral, single dose, preliminary | – | NOAEL | ~25 mg/kg
C=Cc1c(C)c2cc3nc(c(CC(=O)O)c4[nH]c(cc5nc(cc1[nH]2)C(C)=C5CC)c(C)c4C(=O)O)[C@@H](CCC(=O)NCCCC[C@H](NC(C)=O)C(=O)N[C@@H](Cc1ccccc1)C(=O)N[C@@H](Cc1ccccc1)C(=O)N[C@H](C(=O)N[C@@H](CC(C)C)C(=O)N[C@@H](CCCCN)C(=O)N[C@@H](CO)C(=O)NCC(=O)N[C@@H](CCC(N)=O)C(=O)N[C@@H](Cc1ccc(O)cc1)C(=O)N[C@@H](C)C(=O)N[C@@H](CO)C(=O)N[C@@H](Cc1ccc(O)cc1)C(=O)N[C@@H](Cc1c[nH]cn1)C(=O)N[C@@H](CS)C(=O)N[C@@H](Cc1c[nH]c2ccccc12)C(=O)N[C@@H](CS)C(=O)N[C@@H](Cc1c[nH]c2ccccc12)C(=O)N[C@@H](CCCNC(=N)N)C(=O)N[C@@H](CC(=O)O)C(=O)N1CCC[C@H]1C(=O)NCC(=O)N[C@@H](CCCNC(=N)N)C(=O)N[C@@H](CO)C(=O)NCC(=O)NCC(=O)N[C@@H](CO)C(=O)N[C@@H](CCCCN)C(N)=O)C(C)C)[C@@H]3C | – | – | mouse, blood | 0.5 h | – | blood concentration | 153000 ng/mL
O=C(CN1C(=O)C2(CCN(C(=O)c3ccc4[nH]ncc4n3)CC2)c2c(Br)cccc21)NCC(F)(F)F | – | – | male C57BL/6 mouse, plasma | oral, 10 mg/kg | – | bioavailability | 23.4%
CS(=O)(=O)c1cc(Cl)cc(-c2cc(Cl)c(Cl)cc2Cl)c1Cl | – | ultrafiltration | cow milk whey | 20 nM nominal in whole milk | – | final permeate concentration | 0.53 nM
CC(C)[C@H]1NC(=O)C[C@H]2/C=C/CCSSC[C@@H](NC1=O)C(=O)N[C@H](Cc1cccc3ccccc13)C(=O)NCC(=O)O2 | Mitogen-activated protein kinase kinase kinase 10 (MAP3K10, Homo sapiens, UniProt Q02779) | enzyme activity, inhibitor | – | 10 µM | – | inhibition | -0.8%
COc1ccccc1-c1n[nH]c2nc(N[C@H]3CC[C@H](NS(=O)(=O)CC(C)C)CC3)ncc12 | – | bead binding, competition bead pull-down, refers to: LMJF.04.1230 | Leishmania donovani extract | 10 µM | baseline: vehicle | relative abundance | 0.82
C#Cc1c(F)ccc2cc(O)cc(-c3ncc4c(N5CC6CCC(C5)N6C(=O)OC(C)OC(C)=O)nc(OC[C@@]56CCCN5C[C@H](F)C6)nc4c3F)c12 (stereo partly drawn) | – | chemical stability | simulated intestinal fluid | 1 µM, 30 min | – | compound remaining | 106%
CC[C@H](C)[C@H](NC(=O)[C@H](CCC(N)=O)NC(=O)[C@H](Cc1c[nH]cn1)NC(=O)[C@H](C)NC(=O)[C@H](CC(C)C)NC(=O)[C@H](CCCCN)NC(=O)[C@H](CCC(N)=O)NC(=O)[C@@H](NC(=O)[C@@H](NC(=O)[C@@H]1CSSC[C@H](NC(=O)CNC(=O)[C@H](Cc2ccccc2)NC(=O)[C@H](CO)NC(=O)[C@H](CCCNC(=N)N)NC(=O)[C@H](CC(C)C)NC(=O)CNC(=O)[C@H](CCC(N)=O)NC(=O)[C@H](Cc2ccccc2)NC(=O)[C@H](CC(N)=O)NC(=O)[C@H](CC(N)=O)NC(=O)[C@H](CCSC)NC(=O)[C@H](CO)NC(=O)[C@H](CCC(N)=O)NC(=O)[C@H](CCCNC(=N)N)NC(=O)[C@@H](N)Cc2ccc(O)cc2)C(=O)N[C@@H](CCCNC(=N)N)C(=O)N[C@@H](Cc2ccccc2)C(=O)NCC(=O)N[C@@H]([C@@H](C)O)C(=O)N1)[C@@H](C)O)C(C)C)C(=O)N[C@@H](Cc1ccc(O)cc1)C(=O)N[C@@H](CCC(N)=O)C(=O)N[C@@H](Cc1ccccc1)C(=O)N[C@H](C(=O)N[C@@H](CC(=O)O)C(=O)N[C@@H](CCCCN)C(=O)N[C@@H](CC(=O)O)C(=O)N[C@@H](CCCCN)C(=O)N[C@@H](CC(=O)O)C(=O)N[C@@H](CC(N)=O)C(=O)N[C@H](C(=O)N[C@@H](C)C(=O)N1CCC[C@H]1C(=O)N[C@@H](CCCNC(=N)N)C(=O)N[C@@H](CO)C(=O)N[C@@H](CCCCN)C(=O)N[C@H](C(=O)N[C@@H](CO)C(=O)N1CCC[C@H]1C(=O)N[C@@H](CCC(N)=O)C(=O)NCC(=O)N[C@@H](Cc1ccc(O)cc1)C(=O)NCC(=O)O)[C@@H](C)CC)C(C)C)[C@@H](C)O | – | – | human EDTA plasma | time not given, after 5 freeze-thaw cycles | baseline: untreated samples | recovery | 91.4%
CN(C)[C@H]1C[C@@]23CC[C@@]4(O2)C(=CC[C@]2(C)[C@@H](c5ccc6ccncc6c5)CC[C@H]24)C=C3[C@@H](O)[C@@H]1O | Serine/threonine-protein kinase 3 (STK3, Homo sapiens, UniProt Q13188) | ATP probe labelling, inhibitor, KiNativ profiling | – | 0.1 µM | – | inhibition | 1.8%
CC(C)(C)C(=O)OCOP(=O)(OCOC(=O)C(C)(C)C)C1CCCN(O)C1=O (stereo not drawn) | T47D | – | – | – | – | log GI50 | -6.26 log M
CC(C)[C@@H]1NC(=O)CNC(=O)[C@H](CC(N)=O)NC(=O)[C@H](CCCNC(=N)N)NC(=O)[C@H](Cc2ccc(O)cc2)NC(=O)[C@H](C(C)C)NC(=O)[C@@H](NC(=O)[C@@H](NC(=O)[C@H](CC(N)=O)NC(=O)[C@H](Cc2c[nH]c3ccccc23)NC(=O)[C@H](C)NC(=O)[C@H](Cc2ccccc2)NC(=O)CNC(=O)[C@H](CCCCN)NC(=O)[C@H](Cc2ccccc2)NC(=O)[C@H](Cc2ccccc2)NC(=O)[C@H](CCCCN)NC(=O)OCC2c3ccccc3-c3ccccc32)C(C)C)CSSC[C@@H](C(=O)N[C@@H](Cc2c[nH]cn2)C(=O)N[C@@H](CCCNC(=N)N)C(=O)N[C@@H](CCCNC(=N)N)C(=O)N[C@@H](C)C(=O)N[C@@H](CC(N)=O)C(N)=O)NC(=O)[C@H](C(C)C)NC(=O)[C@H](CCCNC(=N)N)NC1=O | – | – | mouse mammary gland homogenate 50 mg/mL | 8.00 h, 37 °C | – | peptide remaining | 69.7% and 64.9% and 71%
